Assay results gathered from unrelated publications.
Protocols differ between the studies behind these lines. ± marks the error that the study gave.
AR: Androgen receptor (AR, Homo sapiens, UniProt P10275)
EGFR L858R/T790M: Epidermal growth factor receptor (EGFR, Homo sapiens, UniProt P00533, L858R/T790M)
Ugcg: Ceramide glucosyltransferase (Ugcg, Mus musculus, UniProt O88693)
RAD52: DNA repair protein RAD52 homolog (RAD52, Homo sapiens, UniProt P43351)

| SMILES | tested on | assay | system | setting | quantity | result |
| --- | --- | --- | --- | --- | --- | --- |
| CC1(C)NC(=O)N(c2ccc(F)c(C(C)(F)F)c2)C1=O | AR | reporter gene, antagonist | LAPC4 | 24 h, with: DHT 10 nM | IC50 | > 100 µM |
| CCn1nc(Cl)c2c1-c1cnc(N)c(c1)O[C@H](C)c1cc(F)ccc1-c1nn(C)cc1C2 | ALK (Homo sapiens, UniProt Q9UM73) | enzyme activity, inhibitor |  | with: ATP 1 mM | IC50 | 0.0009 µM |
| COCC1CN(C2CCN(c3cc(OC)c(Nc4ncc(Br)c(Nc5ccc6c(c5P(C)(C)=O)OCCO6)n4)cc3C)CC2)C1 | EGFR (Homo sapiens, UniProt P00533, L858R) | enzyme activity, inhibitor, TR-FRET |  |  | IC50 | 0.00335 µM |
| COc1ccc(Nc2cc(NC3CC3)n3ncc(C#N)c3n2)cc1 | DAPK3 (Homo sapiens, UniProt O43293) | inhibitor |  |  | IC50 | > 10 µM |
| COc1cc(N2CCOCC2)ccc1Nc1ncc(Cl)c(Nc2ccccc2NS(C)(=O)=O)n1 | EGFR L858R/T790M | enzyme activity, inhibitor, TR-FRET |  |  | IC50 | 0.00158 µM |
| O=C(Nc1cccc(CSc2ncccn2)c1)c1ccc([N+](=O)[O-])cc1 | Apelin receptor (APLNR, Homo sapiens, UniProt P35414) | β-arrestin recruitment, antagonist |  |  | IC50 | > 100 µM |
| Cc1nn(-c2cccc(N)c2)c(=O)c2cnc(Nc3ccc(N4CCNCC4)cc3)nc12 | ABL1 (Homo sapiens, UniProt P00519, G250E) | enzyme activity, inhibitor |  |  | IC50 | 0.929 µM |
| C[C@@H](OCCCCCN1C[C@H](O)[C@@H](O)[C@H](O)[C@H]1CO)c1ccc(-c2ccccc2)cc1 | Ugcg | enzyme activity, inhibitor, fluorescence |  |  | IC50 | 0.06 µM |
| F[C@@H]1[C@H](c2ccc(-c3ccc(N4CCCC4)nc3)cc2)[C@H](F)[C@H](F)C[C@@H]1F |  | liver microsome stability | cynomolgus liver microsomes | 1 µM | hepatic clearance | 32 mL/min/kg |
| COc1ccc(O)cc1-c1c[nH]c2ncc(-c3cncc(C(=O)N(C)C)c3)cc12 | ABL1 (Homo sapiens, UniProt P00519) | kinase activity, inhibitor, HTRF |  | 1 h preincubation, with: ATP 20 µM | IC50 | 0.0012 ± 0.0001 µM |
| CCN(CC)CC(=O)Nc1cccc(-n2cc(-c3ccc4ccc(-c5cn(-c6cccc(NC(=O)CN(CC)CC)c6)nn5)cc4c3)nn2)c1 | PKN1 (Homo sapiens, UniProt Q16512) | enzyme activity, inhibitor |  |  | IC50 | > 10 µM |
| Sc1nc[nH]n1 | CUGBP Elav-like family member 2, residues 40-212 (Homo sapiens, UniProt O95319) | protein-RNA binding, inhibitor, fluorescence polarization |  | 200 nM protein, with: 10 nM RNA | IC50 | 1.9 ± 0.32 µM |
| CC(=O)N1CCN(CCOc2ccc(C3CCN(C4=Nn5c(nnc5C(F)(F)F)CC4)CC3)cc2)CC1 | AR | antagonist, nuclear translocation |  | top concentration 10 µM | IC50 | > 10 µM |
| CC(C)C[C@H](NC(=O)[C@H](CC(=O)O)NC(=O)[C@H](C)N)C(=O)N1CCC[C@H]1C(=O)N[C@@H](Cc1ccccc1)C(=O)N[C@H](CCC(=O)O)C(=O)N[C@@H](Cc1ccccc1)C(N)=O | Transcriptional regulator PlcR (Bacillus thuringiensis, UniProt A0ACM8Q0N2) | reporter gene, inhibitor, lacZ reporter | 407 Cry− |  | IC50 | 0.977 ± 0.04 µM |
| Cc1cc(NC2CCN(C)CC2)ccc1-c1cc2c(N3CCC[C@H](C(=O)NCc4ccc(OC(F)(F)F)cc4)C3)ncnc2[nH]1 | CHEK2 (Homo sapiens, UniProt O96017) | enzyme activity, inhibitor, ADP detection |  |  | IC50 | > 8 µM |
| COc1cc(O)c2c(c1)CCC21CCC(OC(C)=O)CC1 (stereo not shown) | Si (Rattus norvegicus, UniProt P23739) | enzyme activity, inhibitor, absorbance |  |  | IC50 | 1120 µM |
| OC[C@@H]1[C@@H](O)[C@H](O)[C@@H](O)CN1CCCCCOCc1ccc(-c2ccccc2F)cc1 | Ugcg | enzyme activity, inhibitor, fluorescence |  |  | IC50 | 0.075 µM |

| SMILES | tested on | assay | system | setting | quantity | result |
| --- | --- | --- | --- | --- | --- | --- |
| Cc1cc(N2CCN(C)CC2)nc2ccc(NC(=S)NCCCN3CCN(C)CC3)cc12 | RAD52 | ssDNA annealing, fluorescence quenching |  |  | IC50 | 3.6 µM |
| OC[C@@H]1[C@@H](O)[C@H](O)[C@@H](O)CN1CCCCCOCc1ccsc1 | Ugcg | enzyme activity, inhibitor | RAW264.7 | in situ, with: C6-NBD-ceramide | IC50 | 0.35 µM |
| Cn1nc(-c2ccc(Cl)cc2)c2cc(C(=O)NCCCN3CCCCCC3)sc21 | RAD52 | D-loop formation |  | with: RAD52 450 nM | IC50 | 6.7 ± 0.78 µM |
| CC(Cc1ccc(O)c(O)c1)C(C)Cc1ccc(O)c(O)c1 (stereo not shown) | Thyroxine 5-deiodinase (DIO3, Homo sapiens, UniProt P55073, Y257A) |  |  |  | IC50 | 0.179 µM |
| C=CC(=O)Nc1cc(Nc2ncnc(Nc3cc(Cl)c(F)cc3C(C)(C)O)n2)c(OC)cc1N1CCC(N(C)C)C1 (stereo not shown) | EGFR L858R/T790M | enzyme activity, inhibitor |  |  | IC50 | 0.0006 µM |
| OC[C@H]1N[C@H](C/C=C/CCOCC23CC4CC(CC(C4)C2)C3)[C@H](O)[C@@H](O)[C@@H]1O | Ugcg | enzyme activity, inhibitor, fluorescence |  |  | IC50 | 10 µM |
| O=C(COC(=O)c1cccc(-c2nnco2)c1)NC(c1ccccc1)c1ccc(Cl)cc1 (stereo not shown) | PLA2G4A (Homo sapiens, UniProt P47712) | enzyme activity, inhibitor, fluorescence |  |  | IC50 | 8.3 µM |
| OC[C@@H]1[C@@H](O)[C@H](O)[C@@H](O)CN1CCCCCOCc1ccc(-c2cc(C(F)(F)F)cc(C(F)(F)F)c2)cc1 | Ugcg | enzyme activity, inhibitor, fluorescence |  |  | IC50 | 0.02 µM |
| O=C(Cc1ccc(OCc2ccccc2)cc1)NC1(C(=O)O)CCN(C(=O)c2ccc(-c3cccc(Cl)c3)cc2)CC1 | S1PR5 (Homo sapiens, UniProt Q9H228) | antagonist, GloSensor cAMP |  |  | IC50 | > 10 µM |
| COc1cc(Cl)ccc1C1=CN(c2ccc(-c3ccccc3OC)cc2)C2=NCCCN12 | ALDH1B1 (Homo sapiens, UniProt P30837) | enzyme activity, inhibitor |  |  | IC50 | 0.016 µM |
| Cc1c(C(=O)Nc2ccc(S(=O)(=O)N(C)C3CCN(C)CC3)cc2)oc2c(Cl)cccc12 | RAD52 | D-loop formation |  | with: RAD52 450 nM | IC50 | 16.2 ± 0.42 µM |
| N#Cc1ccccc1-c1ccc(COCCCCCN2C[C@H](O)[C@@H](O)[C@H](O)[C@H]2CO)cc1 | Ugcg | enzyme activity, inhibitor, fluorescence |  |  | IC50 | 0.15 µM |
| Cc1cc(-c2ccc(S(=O)(=O)C3CC(C(=O)NC4(C#N)CC4)N(C(=O)C4(C(F)(F)F)CC4)C3)c(C(F)(F)F)c2)ccn1 (stereo not shown) | Calpain-2 catalytic subunit (Homo sapiens, UniProt P17655) |  |  |  | IC50 | > 10 µM |
| O=C(CCCCCN1C[C@H](O)[C@@H](O)[C@H](O)[C@@H]1CO)NC12CC3CC(CC(C3)C1)C2 | Ugcg | enzyme activity, inhibitor, fluorescence |  |  | IC50 | 0.4 µM |
| c1cc(C2CCCCC2)ccc1-c1ccc(N2CCCC2)nc1 |  | hepatocyte stability | cryopreserved mouse hepatocytes | 1 µM | hepatic clearance | 43 mL/min/kg |
| CCCCCCCOCCCCCN1C[C@H](O)[C@@H](O)[C@H](O)[C@@H]1CO | Ugcg | enzyme activity, inhibitor, fluorescence |  |  | IC50 | 0.05 µM |
| Cc1ccc(NS(=O)(=O)c2c(C)[nH]c(C)c2C(=O)N2CCCCC2)cc1Cl | DRD3 (Homo sapiens, UniProt P35462) | β-arrestin recruitment, antagonist |  |  | IC50 | 34 µM |
